Published values pooled from the literature.
Every numbered part comes from another study and shows a few of its results, in no order.

Sample 1
Target: RNA binding protein fox-1 homolog 2, RRM domain, GST-SBP tag (RBFOX2, Homo sapiens, UniProt O43251-10, residues 100-194)
Technique: RNA Bind-n-Seq
Molecule type: RNA
Matrix: in vitro
Concentration: 365 nM
Setting: natural RNA segment, single round, ends assumed
Relative to: no-protein control
Direction: higher = stronger binding
Quantity: RBNS enrichment (R)
Constant ends, left off below: GGGAGUUCUACAGUCCGACGAUC … UGGAAUUCUCGGGUGCCAA
Construct (chain): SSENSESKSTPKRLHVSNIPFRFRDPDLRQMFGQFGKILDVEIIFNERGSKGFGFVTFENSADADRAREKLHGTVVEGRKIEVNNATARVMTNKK
GUUAAUACAAGGUAUAAUAAAAUUAUCGCAACCCCUCUCCUUCCAGUAUAACCAGCUGAAGUUGCAGAUGUUAGAUAUUUUUCAUAAACAAGUUCGAGUCAAAGUUGAAA: 0.327
CUUAAACUCUUGUCAGUCUGGGCUCAGGGUUCCCAGAGCUCAUUCCCCAGGAAUCUCUAAGACCAGGGCUGGGGCAGUGUCUGUCACUGGCUUGUUUGUUCCCUACCAAU: 0.198
CCAAGUCUUGUACCAAGGGCAGUGCACACUAGGUCUAAGUUGGCAUAAACCUUCAUAUUCUGUCUGUCUCUGUUUGGUUUUGUUUUUAAUAUAGUGUGCCAAUUUUGUGA: 1.35
CCCUCCCUGCCCCAACUCUGACUUCGAAUAAGCCUUGGUCCUAUCCAGAAUACACUGGACACCAAGGCCAAGGACGUUCACGUUCUGCCCUCGCUGGGUCCAGCUGACUC: 0.482
AUUGCCUUGCCUUUAUUACAUGUACAUUUUGAAUUCUGUGACCAGUGAUUUGGGUUUUAUUUUGUAUUUGCAGGGUUUGUCAUUAAUAAUUAAUGCCCCUCUCUUACAGA: 0.572
AUGUAUAGUGUACCUCAAUUCACACGACAGCGACAGCCAUGCUCCUGCCGUACAUGGACAUCUGUUCAACGACUCAUAUUUCAACUGUACCCGAGAGGCUAGCUAUUUAA: 0.475
UAUGAUAAACGUCUUCCAUAGAACUUACUAUAGUCAAAUAACAUAAAAAAACUGACCUAUACAAGUGUUAAGAACCUAAUAUGACAGACAUGAAAUAUGUAACUAGGAAA: 0.335
UAUAAUACUGCUAAGAGAAGCCGGAAGCUUUUUUUUCUUGGAUUGCUUAUGAGCAGUAAUUUAAGAAAACCCACAAAACUUGAUUGUGAAAAACCGAAUAACCAAGCAGC: 0.982
CCCUUACCCAUCUUGCUUCCAAGACCAUUUGUAGUGAGCGAGUGGAUGCUGUGCUACGUGUGAAAUCUGUCUUUGCGGGGCCUGUCUCAGUGAUUCGCUUUUGGUAUUUG: 0.568
CCUCCCCCAACUAUAAAAUUAUUUUGUGGCUACUUCAUAACUGUAAUUUUGCUACUGUUAUGAAUCAUAAGAUGAAAUAUCUGGUAUGCAACCCACAGGUUGAGAACUAC: 0.479
GAGACUCCAAUGUUUACUUUCUCCAGUCCUAGCUCUGCCAUAUAAACACUGUCUCAUGUUGUGCUUCUUAAACGACAAAGAACAUAGUGACUUUUGGGGAUAGAUCUGUC: 0.482
GUUCUUGCAUGUGGAUGUGUGUUUCCCCAGGCAGACGGCCCCUCUCUUCCCAGCACUUCCCUGCCUCCCCCAGGCCUCAGGCCCAGCACCCAGUUCCUCCUCACAUGGCA: 6.13

Sample 2
Target: RING finger protein unkempt homolog, zinc fingers 1-6, GST-SBP tag (UNK, Homo sapiens, UniProt Q9C0B0, residues 30-357)
Technique: RNA Bind-n-Seq
Molecule type: RNA
Matrix: in vitro
Concentration: not given
Setting: RNA with constant flanks, human-mouse chimeric sites, ends assumed
Relative to: input RNA pool
Direction: higher = stronger binding
Quantity: bound/input enrichment
Constant ends, left off below: GGGAGUUCUACAGUCCGACGAUC … CAACAGAGGAUUGAGCAUCA
Residues (chain): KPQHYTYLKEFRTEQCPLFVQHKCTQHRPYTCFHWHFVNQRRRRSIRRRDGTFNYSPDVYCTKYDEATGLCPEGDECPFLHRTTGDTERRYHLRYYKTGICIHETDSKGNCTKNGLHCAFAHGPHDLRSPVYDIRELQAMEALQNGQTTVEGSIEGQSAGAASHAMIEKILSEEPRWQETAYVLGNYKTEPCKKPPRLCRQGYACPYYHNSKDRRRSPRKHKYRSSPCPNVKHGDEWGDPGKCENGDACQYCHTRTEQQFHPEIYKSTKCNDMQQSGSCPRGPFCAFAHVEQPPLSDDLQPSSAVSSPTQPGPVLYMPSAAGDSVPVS
CCCACGCCUCCUCUCCCACAGGCCCAAGAUAUAACCCACCAGUGCCUUUUGUCUUCCUGUCAGCUCUGUCAAUCACGCCUGUCCUCUGUCCCUCUCACCAAGUGCCCAAAGUGGGGAGGG: 1.91 ratio
CAGGGCAUCAUCUCUCGAGCUGUUAAACACCUGUUCAAGAGUAUUGAAGAAAAAAAAACCUCAGCGAUUAAAAACGGGCUGCCCCCUCCUGAAUUCAAAGUGAAUGCCCAGUUCCUAGAG: 0.574 ratio
AUGGAACAUUUCGAUGCGUCACUCAGUACCUAUUUCAAGGCCUUCCUGGGCCCCCGAGAUACAAGAGUCAAAGGAUGGUUCCUCCUGGACAAUUAUAUCCCUACGUUUGUCUGUUCUGUU: 0.0941 ratio
GCUCUUGGGAAUGUAAUCAGCGCCUUGGGGGACAAGAGCAAGAGGGCCACCCAUGUCCCUUACAGAGACUCUAAGCUGACAAGACUCUUGCAGGAUUCCCUUGGGGGUAACAGCCAAACC: 0.117 ratio
CUGGCACUCUAUCAGAUAUAUUAAUUUUUAAAUGUAGAUAAAAUUUCAAAAAUGAAUGGCUACUUUACACGUUUAACUAGGGUUUUACUAUAUAUGUGUACAUAUGUAUAUAUAUAUAUA: 10.3 ratio
GUGUCCUGCUUUCAACUUAAAUCACUGAGGCAUCUCUACUGUUCUGUGAGCAUCAGGAUUUUAGUGCUGUGUCACCACAUGAGAGUUCAGAAGCAGCCUUUCUGUGGAGGGUGGGAAUGA: 0.151 ratio
GUAUACGGUUAUCGAGGAAAGGACUGUAGAGCGAAUGUAUACCUGCUUCCGACCGGGGAGAUAGUUUAUUUUAUCGCCUCAGUGGUAGUACUAUUUAAUUAUGAGGAGAGGACUCAGCGA: 1.19 ratio
UUACCCGAGAACGAGGAUGAGCUGGAGAGCACCAAUAGGCGCUACACCAAGAGGGACUGCAGCACUUUCCUCAGAACUAGUGAGACGGGCAUCGUGGACCAGGUCAUGGUCACUCUCAAC: 0.134 ratio
CGCUGGCCCAAGCUGAUGGACUCUGAUGGCCUCCAUCUCUCAGGCACGUGUGCCUUCUCUUAGUUAUUGUUUUCGGGAUGUUAUGAAUCUCAGUACUGUGGUUUGAAAGCACCAGCUUUG: 6.26 ratio
UACAUUUUAUUGUUGAGUUUCAUUUUCAUAUAUUCUUGUAGUGUCUGCUUGCCUGUGACUUCUGGUAAAAUAAAAUAAGCCUUUGAAAAUAUUUUAGAUUUAACAUUAACAUUUUCUAAA: 3.83 ratio
GGGACUGAUUCAUCCCAAGGACAGGCCACCCCAUUUGGUGUUUGGAAUGAUGACAGUAUGGAAGGGCCUAGUCAAAAUGUUGAAGCUGAGUCAAUUCAGGAUGCCAUGAGUAUGGAAGAG: 0.238 ratio

Sample 3
Target: Histone acetyltransferase KAT6A, winged helix 2, GST fusion (KAT6A, Homo sapiens, UniProt Q92794, residues 85-181)
Technique: protein binding microarray
Molecule type: double-stranded DNA, one strand shown
Matrix: in vitro
Concentration: not given
Setting: 8-mer, flanks averaged, mean of 2 arrays, mostly near background
Relative to: not given
Direction: higher = stronger binding
Quantity: E-score
Construct (chain): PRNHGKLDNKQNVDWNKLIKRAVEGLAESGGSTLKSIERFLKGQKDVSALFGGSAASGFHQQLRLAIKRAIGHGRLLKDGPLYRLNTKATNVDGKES
CGCCTTCC: 0.0494
AGAAGCGC: 0.126
GTCCAAAC: -0.075
CAACGGGA: -0.0158
ACAAAGGA: -0.0669
AGCTAGTA: 0.0736
CTGGTTGA: -0.083
AATGAACT: -0.0741
ACATATAA: -0.0487
ATTTGTAA: 0.0899
ATGTCGGC: -0.0581
AGCAACCC: 0.0443
CCTCGTGC: 0.164
CAGATCTG: 0.11
CAGGTAGG: -0.155
CATGCTAA: 0.104
AACAGTGA: -0.114
AGCCAAGC: 0.0289
GATGGCGA: -0.00278
AGCAAATC: 0.0155
ATGACCAC: -0.0278

Sample 4
Target: Prothrombin, mature alpha-thrombin (F2, Homo sapiens, UniProt P00734)
Technique: aptamer microarray, sandwich
Molecule type: DNA with 2'F-ANA
Matrix: in vitro
Concentration: 200 nM
Setting: whole 15-mer aptamer, many near background
Added: Cy3 exosite-II aptamer, 400 nM
Direction: higher = stronger binding
Quantity: mean fluorescence intensity
Strand: GGTTGGTGTGGTTGG
2'F-ANA at 1 3 5 8 9 11 15: 61.4 a.u.
2'F-ANA at 1 5 7 15: 56.9 a.u.
2'F-ANA at 1 2 3 5 8 10 14 15: 246 a.u.
2'F-ANA at 3 4 6 7 8 10 11 12: 302 a.u.
2'F-ANA at 1 3 8 11: 307 a.u.
2'F-ANA at 6 7 8 9 10 12 14 15: 119 a.u.
2'F-ANA at 1 3 4 7 8 10 11 14: 86.3 a.u.
2'F-ANA at 3 4 6 7 10 12 15: 295 a.u.
2'F-ANA at 1 3 4 5 9 10: 46.1 a.u.
2'F-ANA at 1 2 3 4 5 7 9 10 11 14 15: 49.3 a.u.
2'F-ANA at 1 4 6 7 8 15: 154 a.u.
2'F-ANA at 1 2 3 6 7 8 9 10 12 13: 82.5 a.u.
2'F-ANA at 1 3 7 8 9 11 12 13 14 15: 141 a.u.
2'F-ANA at 3 4 7 11 12 13 14 15: 378 a.u.
2'F-ANA at 1 2 3 5 6 7 8 9 11 12 13 14: 48.7 a.u.
2'F-ANA at 1 2 3 4 12 14 15: 82.9 a.u.
2'F-ANA at 2 3 4 5 6 7 8 10 11 14: 53.5 a.u.
2'F-ANA at 3 4 5 6 10 11 12 13 14: 47.4 a.u.
2'F-ANA at 1 3 4 5 6 7 8 10 14 15: 72.2 a.u.
2'F-ANA at 2 4 6 10 14: 59.3 a.u.
2'F-ANA at 2 6 8 9 10 11: 118 a.u.
2'F-ANA at 1 2 5 6 7 9 10 11 12 13: 47.7 a.u.

Excerpt of the above (sample 3):
GATGGCGA: -0.00278
AGCTAGTA: 0.0736
AACAGTGA: -0.114
ATGTCGGC: -0.0581
CGCCTTCC: 0.0494
CTGGTTGA: -0.083
CAGGTAGG: -0.155
ACATATAA: -0.0487
